Measured values of several laboratories.
Numbered parts are unrelated; each lists some results of a single study. Positions count from the first letter of the parent shown.

Set 1
Target: CCNB1, cyclin fold, Cln2 fusion (human)
Technique: yeast growth competition, sequencing
Medium: yeast
Setting: weak parent motif
Relative to: not given
Direction: higher = stronger binding
Endpoint: normalised enrichment score
Starting sequence: CENPC docking peptide (human); VKTKKRLNFDDKV
VKTKARANFDDKV [K5A L7A]: 0.555
VKTKKRLNFADKV [D10A]: 0.429
VKTKKRLAFDDKV [N8A]: 0.985
VKTKKRLNFDDAV [K12A]: 1.09
VKTKRRLNFDDKV [K5R]: 1.26
VKTAKRLNFDDKV [K4A]: 1.02
VKTKKRLNLDDKV [F9L]: 0.273
AKTKKRLNFDDKV [V1A]: 0.451
VKTKKALNFDDKV [R6A]: 0.255
VKTKKRANFDDKV [L7A]: 0.322

Set 2
Target: Centromere-binding protein 1, full length, N-terminal tag (CBF1, Saccharomyces cerevisiae, UniProt P17106, residues 1-351)
Sequence of UniProt P17106 (whole entry, looked up): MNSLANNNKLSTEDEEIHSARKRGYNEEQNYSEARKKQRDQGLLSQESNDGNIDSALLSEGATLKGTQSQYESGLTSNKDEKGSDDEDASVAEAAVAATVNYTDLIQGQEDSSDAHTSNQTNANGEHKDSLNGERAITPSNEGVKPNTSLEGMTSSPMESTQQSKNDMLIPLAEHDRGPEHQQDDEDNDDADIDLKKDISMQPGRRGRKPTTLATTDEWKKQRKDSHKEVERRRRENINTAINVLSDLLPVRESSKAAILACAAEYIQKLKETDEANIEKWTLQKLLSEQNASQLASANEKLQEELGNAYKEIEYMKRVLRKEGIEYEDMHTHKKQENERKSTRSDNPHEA
Technique: protein-binding microarray
Form: double-stranded DNA, one strand shown
Medium: in vitro
Concentration: 0.8 µM
Setting: whole 60-bp probe, no competitor
Direction: higher = stronger binding
Endpoint: fluorescence intensity
Shared flanks, not repeated: … GTCTTGATTCGCTTGACGCTGCTG
TGTACGAAGCTATACAACGTGGCTATAGTAGTTAGG: 566 a.u.
CTAGTAAAATCGCAACACGTGATATTGCTCGTCTTC: 10700 a.u.
GAAGCATTGAATCGCCACATGTCTATAATCTTATAG: 735 a.u.
GAAAGTTTCAGGTGTTGCGTGGAATGCCCCTGCTAG: 516 a.u.
CTATATATATTACGTCATCTGACATACGACACTTTC: 1780 a.u.
GAAAAATGAGAAACAGGTGAAATTTGAGATAAATAG: 504 a.u.
CTAGCGAATCCACATTTTCACGTGAGCTTGCAATTC: 5180 a.u.
GAACTTCATTGTTCTTGTCTGATGATTCAAAAGTAG: 592 a.u.
CTACCTCTTTTTTTTCACGTGCTGCGCTGATGTTTC: 3630 a.u.
GAAAGAGAAACCCGTGGGCACGTGGCTGTTATATAG: 9450 a.u.
CTATGCACAGTGACTCACGAGTTTTTGTTTTCTTTC: 600 a.u.
GAAAAGACGACAAACTACCACATGAAGTGGCGGTAG: 490 a.u.
CTATAAAGCACTGATTTGATGTTACCGAACTTTTTC: 516 a.u.
GAATTAACATATTAGCACGGGGAGGCCGATGTTTAG: 606 a.u.
CTATTTCATCGACATTAGGTGACGTTTCTCAGTTTC: 529 a.u.
CTAAGAGTATACATACACGTTCTCAGGGAAAAGTTC: 599 a.u.
GAAGGGAAAAATCAACATCAGATCCTCGAGAGTTAG: 506 a.u.
CTAAGCATTTTTTATCACGTTATTCGGTGACACTTC: 2120 a.u.
GAATCCTTGAAGTAGCACATGCGTTAGGGCTAGTAG: 581 a.u.
GAAACGGTACGTATCCACGTGGAGAAGCACATTTAG: 2450 a.u.
CTACGATACCCTATGAACGTGCACCTTTTTTGTTTC: 616 a.u.
CCTAACTACTATAACCACCATGTATAGCTTCGTACA: 501 a.u.
CTAACTACGCATTATCACGTAGGCATATATATGTTC: 583 a.u.
GAAGGTGGGAACCACAGCGTGATGCTGACAAATTAG: 660 a.u.
GAACGCCACACCGATCACAAAACGGCTTCACCATAG: 506 a.u.

Set 3
Target: Histone acetyltransferase KAT6A, winged helix 1, GST fusion (KAT6A, Homo sapiens, UniProt Q92794, residues 1-85)
Technique: protein binding microarray
Form: double-stranded DNA, one strand shown
Medium: in vitro
Concentration: not given
Setting: 8-mer, flanks averaged, mean of 2 arrays, mostly near background
Relative to: not given
Direction: higher = stronger binding
Endpoint: E-score
Target sequence (chain): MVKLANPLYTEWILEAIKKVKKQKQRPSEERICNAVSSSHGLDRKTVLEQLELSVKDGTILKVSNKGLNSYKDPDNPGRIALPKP
GACTCATC: -0.0272
ACCTGACT: -0.203
CGTTAAAA: 0.0152
CGAGACCG: 0.243
ACAGTAGA: -0.103
CTGATATC: -0.138
TCCAAGCA: -0.163
CGCCAGGC: 0.23
CTTGCAGA: -0.0826
AGTAGCGC: 0.376
CCCTACCA: -0.112
ACTAGAAG: -0.109
GCACCTTA: 0.0315
CTTTAGAC: -0.25
CTCAATAA: -0.218
GACCGTGA: 0.0743
AACCGGCC: 0.316
GCAGGTAA: 0.0825
TGACGAAA: -0.195
GGTACTGA: 0.109
GCAATGCC: 0.141
AGAGGACA: -0.242
ACGGCCGA: 0.396
CGCAGCTA: 0.0682
CCTGGCCA: -0.0855

Set 4
Target: Ras GTPase-activating protein-binding protein 1, RRM domain (G3BP1, Homo sapiens, UniProt Q13283)
Sequence of UniProt Q13283 (whole entry, looked up): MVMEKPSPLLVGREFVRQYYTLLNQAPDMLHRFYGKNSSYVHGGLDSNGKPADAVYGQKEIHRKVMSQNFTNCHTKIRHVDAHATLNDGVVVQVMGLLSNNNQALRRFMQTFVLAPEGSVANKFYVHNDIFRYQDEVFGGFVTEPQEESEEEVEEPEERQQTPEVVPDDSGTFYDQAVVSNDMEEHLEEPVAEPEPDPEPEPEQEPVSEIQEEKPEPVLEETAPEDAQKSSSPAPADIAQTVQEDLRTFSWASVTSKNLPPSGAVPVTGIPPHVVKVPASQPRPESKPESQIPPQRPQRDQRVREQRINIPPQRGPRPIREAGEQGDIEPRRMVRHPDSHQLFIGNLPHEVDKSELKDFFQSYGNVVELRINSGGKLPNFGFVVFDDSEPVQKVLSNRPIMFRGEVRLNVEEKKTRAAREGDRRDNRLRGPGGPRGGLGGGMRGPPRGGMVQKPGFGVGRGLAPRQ
Technique: RNA Bind-n-Seq
Form: RNA
Medium: in vitro
Concentration: 1 µM
Setting: whole 134-nt RNA, ends assumed
Together with: 150 mM KCl
Relative to: input library
Direction: higher = stronger binding
Endpoint: log2 enrichment
Shared flanks, not repeated: GGGAGUUCUACAGUCCGACGAUC … UGGAAUUCUCGGGUGUCAAGG
UUACUAGAAAAGGCAGAAGCCCGUGAACGUGAAAGAGAAAAAGAAGAGGCUCGGAAGAUGAAACGAAAAGAAUCUGCAUUUAAGAGUAUG: 0.0683
CCUCAAGUCCUGUGCUACACAUCGUAUGUACCGAAUCGGGGCGGGGCGGGCGGAAAGUAUUAUGUUACGCCGUUCGGAUCUGCACUUCCA: -0.137
CACAGACAACACGCACCCACACAGACACAGAGGGAAGGGGUUGGGAUGGGGACAGGGUGCACAGCAGGAAAGGGUAGGACCCCAGCCCCU: -0.132
AGUCCUGUGCUACACAUCGUAUGUACCGAAUCGGGUUUUUUUGGGUGGGAAAAAGGGAAAGUAUUAUGUUACGCCGUUCGGAUCUGCACU: 0.465
UUGACUAUAUUGUGGAGUAUGACUAUGAUGCUGUACAUGAUGAUGAAUUAACUAUUCGAGUUGGAGAAAUCAUCAGGAAUGUGAAAAAGC: -0.253
UAACUUUAGAGGAGGAUCUGAUGGAUAUGGCAGUGGACGUAGAUUUGGGGAUGGCUAUAAUGGGUAUGGAGGAGGACCUGGAGGUGGCAA: -0.325
UCAAGUCCUGUGCUACACAUCGUAUGUACCGAAUCGGGUGGGAAAAAGGGUGGGAAAGUAUUAUGUUACGCCGUUCGGAUCUGCACUUCC: 0.556
CUGUGCUACACAUCGUAUGUACCGAAUCGGGCCCCCCCGGGGCCCCCCCGGCCCCCCCGGGGAAAGUAUUAUGUUACGCCGUUCGGAUCU: -0.616
AAGUCCUGUGCUACACAUCGUAUGUACCGAAUCGGGCCCCGGCCCCGGGCCCCGGGAAAGUAUUAUGUUACGCCGUUCGGAUCUGCACUU: -0.932
CUCAAGUCCUGUGCUACACAUCGUAUGUACCGAAUCGGGUUUGGGAGGGUGGGAAAGUAUUAUGUUACGCCGUUCGGAUCUGCACUUCCA: 1.02
CACAGACAACACGCACCCACACAGACACAGAGGGAAGGGGUUGGGAUGGGGACAGGGUGCACAGCAGGGCGGGGUAGGUCCCCAGCCCCU: -0.293
GCAGGAAGUAAAAACAAAUGGAAAUGCUUCGGAUAGUGGCAGGGGUGGGGGUUGCUAAGGAAAGGAUGGGAUGGGAGUGGGUAAAGAGUU: 1.11
CACAGACAACACGCACCCACACAGACACAGAGGGAAGGGGUUGGGAUGGGGACAGUGUGCACAGCAGGGCGGGGUAGGACCCCAGCCCCU: -0.00267
CACAGAUAACACGCACCCACACAGACACAGAGGGAAGGGGUUGGGAUGGGGACAGGGUGCACAGCAGGGCGGGGUAGGACCCCAGCCCCU: -0.0832

Set 5
Target: RNA binding protein fox-1 homolog 2, RRM domain, GST-SBP tag (RBFOX2, Homo sapiens, UniProt O43251-10, residues 100-194)
Technique: RNA Bind-n-Seq
Form: RNA
Medium: in vitro
Concentration: 365 nM
Setting: natural RNA segment, single round, ends assumed
Relative to: no-protein control
Direction: higher = stronger binding
Endpoint: RBNS enrichment (R)
Shared flanks, not repeated: GGGAGUUCUACAGUCCGACGAUC … UGGAAUUCUCGGGUGCCAA
Residues (chain): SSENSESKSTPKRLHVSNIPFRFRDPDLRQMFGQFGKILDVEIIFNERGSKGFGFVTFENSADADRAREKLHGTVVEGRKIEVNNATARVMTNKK
CAGCUUGUCUGAGUCAGCUCAUCCCCCUCCAGCCAGGCCUGACCAGGGAUUCAUAGAGUUCCGGGCCUGGGAUUCUCCCAGCUGCGCCAUAGGUCAUCCUCAACAACCCA: 0.338
UAACAACUGGAGAAUGGUAUUCCAGGCCCCAAGAAACUUUGCUUAGGAUUGAUUCUGAGAUGACACUGUGUGCUGGCAAGGAGCAUUGGGGGGCACAGUUGUUGUUUGGU: 0.862
ACAUCUGCCUGAGGUCAGGAGGCAAUUUGCCUGCCUUGUACAAAAGCUCAGGUGAAAGACUGAGAUGAAUGUCUUUCCUCUCCCUGCCUCCCACCAGACUUCCUCCUGGA: 0.29
GCUUUUAAAUAUACAAGGGGUUCUUCUUUAAAUAGAGGAAAAGGUUAAUCCUCUCCAGCAGGAUGCCCACUGGAUAUAUUAACAUCUGUAGGUAGUUGGAAGUGUAGAGA: 0.643
GGAUCCUGUAGGCCCUGGGAGGGGGUCCCCUUUGUGAAAUAUCAAUGCUGUUUGGGGCCCUCCCCCCAAGACUUCUCUCACUUGUUGAGUCUGUGUGCUCUCGCAAUGUU: 0.278
AGUUUCAGGGCUGGGCAGCAGGUUACUGGAGAGGCAGGCAAGAAGCGUCCUUACCUUCUCUCAUUCCCCAGCUCUCAUUCUGAGCCUUUGGUCCCUGACCUUAUGGCCAU: 0.278
CCAGAGAUGAUGGCAGUCCAGCAGCAACUCCCUGUGCUCCCUUCUCUUUGGGCAGAGAUUCUAUUUUUGACAUUUGCACAAGACAGGUAGGGAAAGGGGACUUGUGGUAG: 0.72
UGUGUUUUUCUUCUUGUUGUUUUAGAACUUUUUCAAAAACAAACAAGACAAACAAACAUAAAAAUAGGCCUUCUUUAGAUUUAUAGCAGUGACUUUUACACACUCUCACA: 0.347
ACACACACCAGAUGGCAUCCUUGGGACCUGAAUCUAUCACCCAGGAAUCUCAAACUCCCUUUGGCCCUGAACCAGGGCCAGAUAAGGAACAGCUCGGGCCACUCUUCUGA: 0.355
UGUCUGACAUCCCUGGAGAGGCUACGCUGUUCCAGGUGGCACUGGGAUGCCAGUUGGCAGCUGGAUCCUUCUGUUCACACGACUUGGAACCUUUUGUCCUUUGGGGCUGG: 0.254
UAACCUUUCCAGUAUUCUGUUUCACGCUUAGAUGGAAAUGUAUCUUAUGAAUAGAGACAUAUUAAAAUAAUGUUUACAUCUUAGAAAAAACAUAGAUAGUGCUAGUAAUA: 0.678
UCUGAGCCACAGUUAGCUGCUAUUUUGAGGCAUCCAAGGGGAAGUGGGCUGAAAAACGCCACACUCAUUUCAAGGGGCAAUGUCUGGGGUUUAGAAAUUCAUUUAUAACU: 0.53

Set 6
Target: PABPC1L2, full length, GST fusion (mouse, UniProt A0ABA7IW68)
Technique: RNAcompete
Form: RNA
Medium: in vitro
Concentration: 20 nM
Setting: 7-mer, probes averaged, single round
Relative to: mean of 7-mers
Direction: higher = stronger binding
Endpoint: 7-mer Z-score
Residues (chain): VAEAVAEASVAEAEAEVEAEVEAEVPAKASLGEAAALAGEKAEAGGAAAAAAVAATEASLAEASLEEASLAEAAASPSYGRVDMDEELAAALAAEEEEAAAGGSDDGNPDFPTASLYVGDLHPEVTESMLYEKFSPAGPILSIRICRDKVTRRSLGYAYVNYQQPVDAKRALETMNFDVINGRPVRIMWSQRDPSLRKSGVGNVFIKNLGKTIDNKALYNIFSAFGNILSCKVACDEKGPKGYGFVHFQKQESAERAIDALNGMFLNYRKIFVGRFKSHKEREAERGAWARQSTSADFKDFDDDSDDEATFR
GGCUACG: -0.124
AGCAGGG: 0.148
CGCGCGG: -0.206
ACGGGAU: 0.0986
GCAAUCG: -0.0192
CACGCUU: -0.309
AGGCCCU: -0.269
ACAACCU: 0.0134
CUCUGCA: -0.184
UUAGACU: -0.213
AGUUCCG: -0.237
ACCGCGC: -0.0953
UUGGUAG: -0.19
UGAGUUA: -0.179
UGUGUCU: -0.362
CCGUUAC: -0.233
CUUUCAC: -0.32
UUGUAGC: -0.347
UUCGCGA: -0.269
UACCUUU: -0.298
CUCUUCG: -0.411
CAGCGGU: -0.0881
GCUGAUA: -0.119

Some of these lines once more (set 3):
CTTTAGAC: -0.25
CGCAGCTA: 0.0682
CGTTAAAA: 0.0152
CTGATATC: -0.138
GACTCATC: -0.0272
ACGGCCGA: 0.396
ACTAGAAG: -0.109
ACAGTAGA: -0.103
AGTAGCGC: 0.376
GCACCTTA: 0.0315
CTTGCAGA: -0.0826
GCAATGCC: 0.141
CCCTACCA: -0.112
TGACGAAA: -0.195
GACCGTGA: 0.0743
